Measurements collected from several papers.
Lines come from different studies, so protocols differ. ± gives the spread as reported. Values after ≈ are worked out from the molar mass of the structure shown.
cofactor-independent phosphoglycerate mutase W431C: cofactor-independent phosphoglycerate mutase (Metamycoplasma orale, UniProt A0A448ZXM1, W431C)

`CC(=O)Oc1ccc(Cn2ccc(=O)[nH]c2=O)cc1C1OC(c2ccc(Cl)cc2)=NN1C(C)=O` (centres unmarked) gave an EC50 of > 20 µM (varicella-zoster virus; plaque formation, plaque reduction; HEL fibroblasts, TK+ strain OKA).
`COc1cc(-c2ccc3oc(-c4ccsc4)c(C#CC4(O)CCCCC4)c3c2)cc(OC)c1OC` has a remaining activity of 88.4% (hepatitis C virus; viral entry, HCV pseudoparticle entry; genotype 1b; 10 µM; relative to: DMSO).
`[O-][N+]1=C(c2ccc(Cl)cc2)C2=NCCCCN2c2ccccc21` has an MIC of 2 µg/mL (≈ 6.14 µM) (Bacteroides fragilis; microbial growth; ATCC25285).
`CC[C@H](C)[C@H](NC(=O)[C@H](Cc1c[nH]c2ccccc12)NC(=O)[C@H](CCCNC(=N)N)NC(=O)[C@H](CCC(N)=O)NC(=O)[C@@H](NC(=O)[C@H](Cc1c[nH]c2ccccc12)NC(=O)[C@H](CCCNC(=N)N)NC(=O)[C@H](CCCNC(=N)N)NC(=O)[C@H](C)NC(=O)[C@H](C)NC(=O)[C@H](C)NC(=O)[C@@H](NC(=O)[C@H](CCCCN)NC(=O)[C@@H]1CCCN1C(=O)[C@H](CCCNC(=N)N)NC(=O)[C@H](Cc1c[nH]c2ccccc12)NC(=O)[C@H](CCCNC(=N)N)NC(=O)[C@H](CCCNC(=N)N)NC(=O)[C@@H](NC(=O)[C@H](Cc1c[nH]c2ccccc12)NC(=O)[C@H](CCCNC(=N)N)NC(=O)[C@H](CCC(N)=O)NC(=O)[C@@H](NC(=O)[C@H](Cc1c[nH]c2ccccc12)NC(=O)[C@H](CCCNC(=N)N)NC(=O)[C@@H](N)CCCNC(=N)N)C(C)C)[C@@H](C)CC)C(C)C)C(C)C)C(=O)N[C@@H](CCCNC(=N)N)C(=O)N[C@@H](CCCNC(=N)N)C(=O)N[C@@H](Cc1c[nH]c2ccccc12)C(=O)N[C@@H](CCCNC(=N)N)C(=O)N1CCC[C@H]1C(=O)N[C@@H](CCCCN)C(=O)N[C@H](C(N)=O)C(C)C` — result for inhibition: “inhibited” (Aspergillus fumigatus; DTO 368-D5 and 368-D6; concentration not given, 25 °C).
For `CC#N.[Cl][Mn-2]([Cl])([Cl])[Cl].[Mn+2].c1ccc(CN2CCCN3CCCN(CCCN(Cc4ccccc4)CC3)CC2)cc1`, the IC90 was 9.11 µM (Leishmania donovani; parasite growth, resazurin; 72 h, promastigote).
`COc1ccc(C[C@H]2C(=O)N[C@@H](Cc3ccc(O)cc3)C(=O)N3CCC[C@H]3C(=O)NCC(=O)N[C@@H]([C@@H](C)O)C(=O)N[C@@H](C)C(=O)N[C@@H](CCC(N)=O)C(=O)N(C)[C@@H](Cc3ccc(O)cc3)C(=O)N[C@@H]([C@@H](C)O)C(=O)N[C@H](C(N)=O)CSCC(=O)N[C@H](Cc3ccc(O)cc3)C(=O)N[C@@H](Cc3c[nH]c4ccccc34)C(=O)N(C)[C@@H](Cc3ccc(O)cc3)C(=O)N[C@@H](CC(=O)O)C(=O)N(C)[C@@H](CO)C(=O)N(C)[C@@H](Cc3ccc(O)cc3)C(=O)N2C)cc1` gave an AC50 of 10.2 nM (cofactor-independent phosphoglycerate mutase W431C; biochemical; Mycoplasma orale).
`[Cl-].[Cl-].[Mn+2].c1ccc(CN2CCCNCCN(Cc3ccccc3)CCCNCC2)cc1` has an IC90 of 12.7 µM (Leishmania donovani; parasite growth; THP-1 macrophages; intracellular amastigotes).
`[O-][N+]1=C(c2ccsc2)C2=NCCCN2c2ccccc21` has an MIC of 0.25 µg/mL (≈ 0.882 µM) (Finegoldia magna).
For `CC[C@H](C)[C@H](NC(=O)[C@H](CCCCN)NC(=O)[C@H](CCCCN)NC(=O)[C@H](CC(C)C)NC(=O)[C@H](CCCCN)NC(=O)[C@H](CCC(=O)O)NC(=O)[C@H](CCCCN)NC(=O)[C@@H](NC(=O)[C@H](CCCCN)NC(=O)[C@H](CC(N)=O)NC(=O)[C@H](CCCNC(=N)N)NC(=O)[C@H](Cc1ccccc1)NC(=O)[C@H](CCCCN)NC(=O)[C@H](CCCNC(=N)N)NC(=O)[C@H](CC(C)C)NC(=O)[C@H](CCCNC(=N)N)NC(=O)[C@H](CCCCN)NC(=O)[C@H](CCCNC(=N)N)NC(=O)[C@@H](N)CC(C)C)[C@@H](C)CC)C(=O)NCC(=O)N[C@@H](CCC(N)=O)C(=O)N[C@@H](CCCCN)C(=O)N[C@H](C(=O)N[C@@H](CCC(N)=O)C(=O)NCC(=O)N[C@@H](Cc1ccccc1)C(=O)N[C@H](C(=O)N1CCC[C@H]1C(=O)N[C@@H](CCCCN)C(=O)N[C@@H](CC(C)C)C(=O)O)C(C)C)[C@@H](C)CC`, the lethal concentration was 2.99 µM (Stenotrophomonas maltophilia; inhibition zone; CGMCC 1.179; LB agar, overnight).
`CC(=O)[O-].F[P-](F)(F)(F)(F)F.[Cu+2].c1ccc(CN2CCN3CCN(CC2)CCN(Cc2ccccc2)CC3)cc1` has an IC50 of > 20 µM (Leishmania donovani; THP-1-derived macrophages, intracellular amastigotes).
The colistin MIC of `Oc1cc(C(F)(F)F)ccc1-c1nc2c(C(F)(F)F)cc(C(F)(F)F)cc2[nH]1` is reported as > 16 µg/mL (Acinetobacter baumannii; colistin potentiator; AB 1G2, colistin-resistant; 5 µM).
With `C=C(C)[C@@H]1CC[C@]2(CO)CC[C@]3(C)[C@H](CC[C@@H]4[C@@]5(C)CCCNC(C)(C)[C@@H]5CC[C@]43C)[C@@H]12` the selectivity index was < 2 (Human papillomavirus 11; viral replication; C-33 A; relative to: CC50 over EC50).
`CC(=O)[O-].CN1CCN2CCN(CC1)CCN(Cc1ccccc1)CC2.F[P-](F)(F)(F)(F)F.[Cu+2]` has an IC90 of > 20 µM (Leishmania donovani; parasite growth, resazurin; 72 h, promastigote).
Under “superoxide dismutase activity”, `CCn1c(-c2ccc(OC)cc2)c(-c2ccc(OC)cc2)n(CC)c1=[Se+][Au-][P+](CC)(CC)CC.[Cl-]` is recorded as “decreased” (Acinetobacter baumannii; carbapenem-resistant; 10, 20, 40 µM, 2 h; relative to: untreated).
Under “inhibition zone diameter”, `CCCN1CCNC1=[S+][Ag-3]([O][N+](=O)[O-])([P+](c1ccccc1)(c1ccccc1)c1ccccc1)[P+](c1ccccc1)(c1ccccc1)c1ccccc1` is recorded as 13 mm (Shigella flexneri; MTCC 1457, DMSO; 0.1 mL of 50 mg/mL in 8 mm well, 18 to 24 h).
`[Cl-].[Cl-].[Ni+2].c1ccc(CN2CCNCCN(Cc3ccccc3)CCNCC2)cc1` has an IC90 of > 20 µM (Leishmania donovani; parasite growth; THP-1 macrophages; intracellular amastigotes).
Under glutathione content, `CCn1c(-c2ccc(-c3ccc(F)cc3)cc2)c(-c2ccc(-c3ccc(F)cc3)cc2)n(CC)c1=[Se+][Au-][P+](CC)(CC)CC.[Cl-]` is recorded as “decreased” (Acinetobacter baumannii; carbapenem-resistant; 10, 20, 40 µM, 2 h; relative to: untreated).
`COc1ccc(-c2oc3ccc(-c4cc(OC)c(OC)c(OC)c4)cc3c2C#CC(C)(C)O)cc1` gave a remaining activity of 78.7% (hepatitis C virus; HCV replicon replication; HCV genotype 1b subgenomic replicon cells; 10 µM; relative to: DMSO).
`CN[C@](C)(C[18F])C(=O)O` has a tracer uptake of 18 %ID/g (A549 tumour model; host not given, pancreas; 1 h, tumour-bearing).
`CC(CCC(=O)[O-])C1CCC2C3C(O)CC4CC(O)CCC4(C)C3CCC12C.C[N+](C)(C)CC(O)CC(=O)O` (centres unmarked) — result for antibacterial activity: “inactive” (Shigella flexneri; ATCC 9199; 1 mg per disc, 18 to 24 h, 37 °C).
For `[Cl-].[Cl-].[Ru+2].c1ccc2nc3c4cccnc4c4ncccc4c3nc2c1.c1ccncc1.c1ccncc1.c1ccncc1.c1ccncc1`, the MIC90 was 16 µM (Enterococcus faecalis; VRE ATCC 51299; LED irradiation 470 nm).
`CC(=O)[O-].F[P-](F)(F)(F)(F)F.[Co+2].c1ccc(CN2CCCN3CCN(CCCN(Cc4ccccc4)CC3)CC2)cc1` has an IC50 of > 15 µM (Leishmania donovani; parasite growth, resazurin; 72 h, amastigote).
With `CC[C@@H](C)[C@@H](NC(=O)[C@@H](C)NC(=O)[C@@H](CCCCN)NC(=O)[C@@H](CC(C)C)NC(=O)[C@@H](C)NC(=O)[C@H](NC(=O)[C@@H](Cc1c[nH]cn1)NC(=O)[C@@H](CC(C)C)NC(=O)[C@H](NC(=O)[C@H](NC(=O)[C@@H](CCCCN)NC(=O)[C@@H](CCCCN)NC(=O)[C@@H](C)NC(=O)[C@@H](CO)NC(=O)[C@@H](CCCCN)NC(=O)[C@@H](Cc1ccccc1)NC(=O)[C@H](NC(=O)[C@@H](CCCCN)NC(=O)[C@@H](CC(C)C)NC(=O)[C@@H](Cc1ccccc1)NC(=O)[C@@H](CO)NC(=O)[C@@H](CCCCN)NC(=O)[C@@H](Cc1c[nH]c2ccccc12)NC(=O)[C@@H](CCCCN)NC(C)=O)[C@H](C)O)[C@H](C)O)C(C)C)[C@H](C)O)C(=O)N[C@H](CO)C(=O)N[C@H](CO)C(N)=O` the MIC90 was 6.3 µg/mL (Rhizomucor; clinical isolate; 48 h, 30 °C).
`Nc1ccn(C[C@@H](CO)OCP(=O)(O)OCCCS(=O)(=O)CCCCCCCCCCCCCC2CCC2)c(=O)n1` has a selectivity index of > 14 (human alphaherpesvirus 2; HFF, G; relative to: CC50 over EC50).
With `CC(C)[C@@H]1NC(=O)[C@H](CO)N(C)C(=O)[C@H](Cc2c[nH]c3ccccc23)NC(=O)[C@H](CCC(=O)O)NC(=O)[C@H](CC(=O)O)NC(=O)[C@H](Cc2ccc(O)cc2)N(C)C(=O)[C@H](Cc2ccc(O)cc2)NC(=O)[C@H](Cc2c[nH]c3ccccc23)NC(=O)[C@H](Cc2c[nH]c3ccccc23)NC(=O)[C@H](CC(=O)O)NC(=O)CNC(=O)[C@H](CO)NC(=O)[C@@H](Cc2ccc(O)cc2)NC(=O)CSC[C@@H](C(N)=O)NC(=O)CN(C)C(=O)[C@H](Cc2ccccc2)N(C)C(=O)[C@H](C)NC1=O` the AC50 was 6.17 nM (cofactor-independent phosphoglycerate mutase W431C; biochemical; Mycoplasma orale).
For `S=C(NCc1ccccn1)NCc1ccccn1`, “inhibition zone diameter” read 23 mm (Agrobacterium tumefaciens; 20 µg/mL).
`CN1CC(=O)N=C1N.C[C@H](CCC(=O)O)[C@H]1CC[C@H]2[C@@H]3[C@H](O)C[C@@H]4C[C@H](O)CC[C@]4(C)[C@H]3CC[C@]12C` — result for “inhibition zone diameter”: 8.2 ± 0.9 mm (Enterococcus faecalis; TISTR 927; 1 mg per disc, 18 to 24 h, 37 °C, 6 mm disc).
The remaining activity of `COc1ccc(-c2oc3ccc(-c4cc(OC)c(OC)c(OC)c4)cc3c2C#CC2(O)CCCCC2)cc1` is reported as 69.3% (hepatitis C virus; viral entry, HCV pseudoparticle entry; genotype 1a; 10 µM; relative to: DMSO).
Under “inhibition zone diameter”, `CN[C@@H]1[C@H](O)[C@H](NC)[C@H]2O[C@]3(O)[C@H](O[C@@H]2[C@H]1O)O[C@H](C)C[C@]3(O)CNCc1ccc(F)cc1` is recorded as 0 mm (Neisseria meningitidis; ATCC 13077; 40 µg per disc).

Some of these lines once more:
`COc1ccc(C[C@H]2C(=O)N[C@@H](Cc3ccc(O)cc3)C(=O)N3CCC[C@H]3C(=O)NCC(=O)N[C@@H]([C@@H](C)O)C(=O)N[C@@H](C)C(=O)N[C@@H](CCC(N)=O)C(=O)N(C)[C@@H](Cc3ccc(O)cc3)C(=O)N[C@@H]([C@@H](C)O)C(=O)N[C@H](C(N)=O)CSCC(=O)N[C@H](Cc3ccc(O)cc3)C(=O)N[C@@H](Cc3c[nH]c4ccccc34)C(=O)N(C)[C@@H](Cc3ccc(O)cc3)C(=O)N[C@@H](CC(=O)O)C(=O)N(C)[C@@H](CO)C(=O)N(C)[C@@H](Cc3ccc(O)cc3)C(=O)N2C)cc1` gave an AC50 of 10.2 nM (cofactor-independent phosphoglycerate mutase W431C; biochemical; Mycoplasma orale).
`[Cl-].[Cl-].[Mn+2].c1ccc(CN2CCCNCCN(Cc3ccccc3)CCCNCC2)cc1` has an IC90 of 12.7 µM (Leishmania donovani; parasite growth; THP-1 macrophages; intracellular amastigotes).
`[O-][N+]1=C(c2ccsc2)C2=NCCCN2c2ccccc21` has an MIC of 0.25 µg/mL (≈ 0.882 µM) (Finegoldia magna).
For `CC[C@H](C)[C@H](NC(=O)[C@H](CCCCN)NC(=O)[C@H](CCCCN)NC(=O)[C@H](CC(C)C)NC(=O)[C@H](CCCCN)NC(=O)[C@H](CCC(=O)O)NC(=O)[C@H](CCCCN)NC(=O)[C@@H](NC(=O)[C@H](CCCCN)NC(=O)[C@H](CC(N)=O)NC(=O)[C@H](CCCNC(=N)N)NC(=O)[C@H](Cc1ccccc1)NC(=O)[C@H](CCCCN)NC(=O)[C@H](CCCNC(=N)N)NC(=O)[C@H](CC(C)C)NC(=O)[C@H](CCCNC(=N)N)NC(=O)[C@H](CCCCN)NC(=O)[C@H](CCCNC(=N)N)NC(=O)[C@@H](N)CC(C)C)[C@@H](C)CC)C(=O)NCC(=O)N[C@@H](CCC(N)=O)C(=O)N[C@@H](CCCCN)C(=O)N[C@H](C(=O)N[C@@H](CCC(N)=O)C(=O)NCC(=O)N[C@@H](Cc1ccccc1)C(=O)N[C@H](C(=O)N1CCC[C@H]1C(=O)N[C@@H](CCCCN)C(=O)N[C@@H](CC(C)C)C(=O)O)C(C)C)[C@@H](C)CC`, the lethal concentration was 2.99 µM (Stenotrophomonas maltophilia; inhibition zone; CGMCC 1.179; LB agar, overnight).
